Published values gathered from unrelated publications.
Each numbered part is a random draw from the data of one study; scales do not carry over between parts.

Sample 1 — technique: protein-binding microarray; molecule type: double-stranded DNA, one strand shown; sample: in vitro; tested at: not given; reading: higher = stronger binding
Target: Protein C-ets-1 (ETS1, Homo sapiens, UniProt P14921, residues 1-441, K379A, full length assumed)
Notes: k-mer, scored over probes, only values ≥0.25
Residues (chain): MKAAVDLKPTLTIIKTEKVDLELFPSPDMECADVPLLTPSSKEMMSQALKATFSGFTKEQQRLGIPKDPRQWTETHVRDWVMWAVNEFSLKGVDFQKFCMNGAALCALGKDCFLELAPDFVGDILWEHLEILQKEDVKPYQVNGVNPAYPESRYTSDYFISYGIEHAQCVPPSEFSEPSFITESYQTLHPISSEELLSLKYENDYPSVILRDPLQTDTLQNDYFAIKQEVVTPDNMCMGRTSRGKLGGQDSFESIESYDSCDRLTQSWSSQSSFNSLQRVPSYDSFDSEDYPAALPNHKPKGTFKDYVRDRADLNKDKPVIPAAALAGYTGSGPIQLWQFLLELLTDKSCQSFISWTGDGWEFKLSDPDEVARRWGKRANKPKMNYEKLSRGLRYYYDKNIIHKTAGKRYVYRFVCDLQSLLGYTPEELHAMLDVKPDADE
`GGACACAC` has an E-score of 0.273.
`AAACCGCC` has an E-score of 0.255.
The E-score of `CCGGGGAC` is reported as 0.367.
`CATATGGG` gave an E-score of 0.263.
`AATGTACT` gave an E-score of 0.259.
`ACTTCCGC` has an E-score of 0.37.
With `CCCGGTTA` the E-score was 0.392.
`GCACATAA` gave an E-score of 0.265.
With `CCGACACA` the E-score was 0.264.
For `CACATATA`, the E-score was 0.324.
The E-score of `AGTACGTC` is reported as 0.28.
`TGACAACA` gave an E-score of 0.285.
With `GCGACATA` the E-score was 0.28.
With `ACCCCTCC` the E-score was 0.252.
The E-score of `GACCGGCA` is reported as 0.29.
With `ACCGGTCC` the E-score was 0.41.

Sample 2 — technique: protein-binding microarray; molecule type: double-stranded DNA, one strand shown; sample: in vitro; tested at: 2540 nM top; notes: 60-bp whole probe; together with: salmon DNA 0.4 mg/ml; reference: random background probes; reading: higher = stronger binding; shared flanks, not repeated: GCCTAGCAC … GTCTTGATTCGCTTGACGCTGCTG
Target: Interferon regulatory factor 3, full length, phosphomimetic (IRF3, Homo sapiens, UniProt Q14653, residues 1-427, S386D/S396D/S398D/S402D/T404D/S405D)
Construct (chain): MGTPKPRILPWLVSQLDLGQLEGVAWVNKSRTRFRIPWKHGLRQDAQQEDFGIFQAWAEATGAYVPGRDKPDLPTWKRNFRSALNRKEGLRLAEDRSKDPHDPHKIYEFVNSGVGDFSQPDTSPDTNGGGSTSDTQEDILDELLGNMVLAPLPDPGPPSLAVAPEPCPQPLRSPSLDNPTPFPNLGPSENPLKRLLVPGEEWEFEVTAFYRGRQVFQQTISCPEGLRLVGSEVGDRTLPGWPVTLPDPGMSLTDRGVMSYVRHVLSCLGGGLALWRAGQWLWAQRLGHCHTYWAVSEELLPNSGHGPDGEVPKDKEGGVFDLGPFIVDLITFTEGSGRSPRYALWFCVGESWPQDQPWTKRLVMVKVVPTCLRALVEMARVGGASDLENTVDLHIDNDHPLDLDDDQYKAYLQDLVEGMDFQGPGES
Under “fitted relative affinity”, `TTAGCTTTCGGTATCGGTTAGTGCTAG` is recorded as 6.13 z-score.
Under “fitted relative affinity”, `TTAGGACTGATTCTCCTTTAGTGCTAG` is recorded as 0.811 z-score.
Under “fitted relative affinity”, `TCATTTTTTTTTTTTCTACTGTGCTAG` is recorded as 1.58 z-score.
`TACGATTTCAGTCTCGAGACGTGCTAG` — result for “fitted relative affinity”: 2.09 z-score.
`GACGGTATCGACTCTGGGGACGTGCTA` — result for “fitted relative affinity”: 0.877 z-score.
For `CTCTATTGCTTTCTCTTTCAGTGCTAG`, “fitted relative affinity” read 2.54 z-score.
Under “fitted relative affinity”, `TCCATTTTCTGAATGCCTTGGTGCTAG` is recorded as 2.7 z-score.
`TGCATCGTAAGCAAAAATGAGTGCTAG` — result for “fitted relative affinity”: -0.113 z-score.
`GACGAACTGAGTTTCGCGACGTGCTAG`: “fitted relative affinity” 0.528 z-score.
`CAGTTTCTCTTTCCTTCTTGGTGCTAG` — result for “fitted relative affinity”: 10.1 z-score.
For `TTAGATTTCAGTCTCGTTTAGTGCTAG`, “fitted relative affinity” read 2.65 z-score.
`GTCGGTATCGGGTATCGGGACGTGCTA`: “fitted relative affinity” 3.24 z-score.
`GACGATATCAGTCTCGAGATGTGCTAG` — result for “fitted relative affinity”: 1.04 z-score.
Under “fitted relative affinity”, `GGCGGTATCCTTCTCCTGACGTGCTAG` is recorded as 7.08 z-score.
`TTAGGTTCCGGTTTCAGTTAGTGCTAG`: “fitted relative affinity” 5.89 z-score.
For `TCAAATTTCCACTTTGAACTGTGCTAG`, “fitted relative affinity” read 2.08 z-score.
For `GACGAACTGAGTTTCGATACGTGCTAG`, “fitted relative affinity” read 3.09 z-score.
`TTAGAACGGAGTATCGATTAGTGCTAG` — result for “fitted relative affinity”: 0.455 z-score.
Under “fitted relative affinity”, `TCAAGTCTGAGATCCAGACTGTGCTAG` is recorded as 0.00105 z-score.
Under “fitted relative affinity”, `TTAGGACCGCTTCTCCTTTAGTGCTAG` is recorded as 0.535 z-score.
`TGAAAATTCTAATTAGAATTGTGCTAG` — result for “fitted relative affinity”: 0.342 z-score.
`GACGATTTCAGTATCCAGACGTGCTAG` — result for “fitted relative affinity”: 3.04 z-score.
`GACGATATCAGACTGGGGACGTGCTAG`: “fitted relative affinity” 0.174 z-score.
Under “fitted relative affinity”, `TTAGGACTGGTTCTCGGTTAGTGCTAG` is recorded as 0.069 z-score.
`TTAGGTATCATTTTCCTTTAGTGCTAG`: “fitted relative affinity” 5.76 z-score.

Sample 3 — technique: RNA Bind-n-Seq; molecule type: RNA; sample: in vitro; tested at: 365 nM; reference: no-protein control; reading: higher = stronger binding
Target: RNA binding protein fox-1 homolog 2, RRM domain, GST-SBP tag (RBFOX2, Homo sapiens, UniProt O43251-10, residues 100-194)
Notes: natural RNA segment, single round, ends assumed
Shared flanks, not repeated: GGGAGUUCUACAGUCCGACGAUC … UGGAAUUCUCGGGUGCCAA
Target sequence (chain): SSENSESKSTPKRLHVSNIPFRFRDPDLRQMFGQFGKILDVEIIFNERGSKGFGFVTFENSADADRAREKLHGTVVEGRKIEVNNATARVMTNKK
For `UUGAGAAACCUGGACUAGAGCUUAGCACUCCCACUUGCAGCCUGGCAGGACCUGUGGAGCCAUUAACGGCGGGGGUCUUAGCGAGAACCACUUCAUUAGAGCACUUGCUG`, “RBNS enrichment (R)” read 0.802.
`UUGGUGAACCUGCUGGUUAGGGCAGCAGCAGAGGUGAGGCUGUUCCUCUCUCUCUCUGUCUCUCUCUGGUCUCUGUCUCUCUCUCUUUUUUUACCAGAACCCUUCUGCAA` — result for “RBNS enrichment (R)”: 1.33.
`UAUAAAAGGUUCUGUUUUUAAAGGUGGAUUUUCAUUCCUCUGGGGACAGUGGUCGCCAAGACAUCUACAUUGUAAGAGAACACAGUGGAAGAUCCUGUCCUGAUUCUCAA`: “RBNS enrichment (R)” 0.366.
For `AGAAUUUGGGGCUCUGACUGAUCAAAACCUGUGUAUCUGUGUCAAGUUUUAAGACCCCUGAAACAGCUAAAACAGGUUUCCAAAGUGUAAUCACUGGAUUUCAAAACCAU`, “RBNS enrichment (R)” read 0.242.
`AACUAUGUGACAACACUUCUCCGCAUAAAGGUUAUGGUGCCCUAGGCAGUGACAUAUGGCCUCAGGCUGGACACCGAGACAGGUGGAAAUACCCUGUCCAUUGGUAGAUG` — result for “RBNS enrichment (R)”: 0.428.
For `UCCCCUGAGCUGAUCCGCUUCACAGCUUCCUCCUCGUCUGGGAUGGUGCCCAAAUUGCCAGCUGGCAAAAUGAAUAACCGUGAUCUCAAACCCCAGCCUGAUAUAGUCUU`, “RBNS enrichment (R)” read 0.375.
For `GGGAGUGGGGCGGGACCACUGUAGGACAGCGAAGGCAUAUAGUGGCGCAUAAAAGCCUGCUGGCUCGGGGCGCCUGCCUCCCUGCUCCUCUGUCCUCAAACAGUGAACCC`, “RBNS enrichment (R)” read 0.405.
Under “RBNS enrichment (R)”, `AAUUAUGAUAGAAAUCGAUUUAACACAAUCAGUUAUGGGCUUCCAUUUUCAAAUAUCUUUUCAACUGUAAUGACUAUGACAGGAACUGAUUCAACUCUCAAUUUUCUUUA` is recorded as 0.517.
`CCCAAGGGGCUGCAUGACCCUGGGGUGCCCCACACAGUUCAGCCCUGCCUGGCAGGGACGCCAGUACUACUGUAACUGCAGCAGGAGCUGCCCGGCCUGCCUUCUGGCCC` — result for “RBNS enrichment (R)”: 2.42.
`GGCCUUUCCAUAGAGAGGCCCUGGAGUCUAAAAUUAUGAGAACAAUUAAUUUAUUUGUGUCUUCUAUUAUGAUCUCGUUUUGACAAUAAAAAUCCUUACUACUUUCUCAA` — result for “RBNS enrichment (R)”: 0.501.
For `CAAAACAGUGCUAAAAUCAAAGGUGUUUGCUGUGAAGAAAAACAUGUGUAUAUAUUGCACCUUGAGUUGUCAGAAGGUAGAAACUGAAAUAAACUAACUUUAAAAAAAAA`, “RBNS enrichment (R)” read 0.658.
Under “RBNS enrichment (R)”, `GCAAUGAAGUGCUUUGUAUCAGGAAAGUGUACACUAUUGACCUUUUUUCCUGUUCACAAGCUGAGCCAUAUGUACAUAAUCUAGAUUUUGUUUUCAUAGUUUUGCACUUU` is recorded as 0.397.

Sample 4 — technique: aptamer microarray, sandwich; molecule type: DNA with 2'F-ANA; sample: in vitro; tested at: 200 nM; together with: Cy3 exosite-II aptamer, 400 nM; reading: higher = stronger binding; sequence: GGTTGGTGTGGTTGG
Target: Prothrombin, mature alpha-thrombin (F2, Homo sapiens, UniProt P00734)
Notes: whole 15-mer aptamer, many near background
`2'F-ANA at 1 2 3 4 5 6 7 9 10 13 14 15`: “mean fluorescence intensity” 56.8 a.u.
`2'F-ANA at 2 3 4 5 8 9 10 11 13 14`: “mean fluorescence intensity” 64.2 a.u.
`2'F-ANA at 2 4 9 11 12 13 14` — result for “mean fluorescence intensity”: 97.6 a.u.
`2'F-ANA at 2 5 6 8 9 12`: “mean fluorescence intensity” 175 a.u.
Under “mean fluorescence intensity”, `2'F-ANA at 1 5 7 8 9 11 13 14 15` is recorded as 47.2 a.u.
Under “mean fluorescence intensity”, `2'F-ANA at 3 4 5 6 8 9 11 12 14 15` is recorded as 52.2 a.u.
Under “mean fluorescence intensity”, `2'F-ANA at 1 2 5 6 8 9 10 11 14` is recorded as 51.4 a.u.
Under “mean fluorescence intensity”, `2'F-ANA at 6 9 11 13 14` is recorded as 142 a.u.
`2'F-ANA at 2 3 4 7 9 10`: “mean fluorescence intensity” 325 a.u.
Under “mean fluorescence intensity”, `2'F-ANA at 6 8 9 11` is recorded as 421 a.u.
`2'F-ANA at 4 5 7 8 9 12 15` — result for “mean fluorescence intensity”: 170 a.u.
`2'F-ANA at 2 3 6 7 9 12 13` — result for “mean fluorescence intensity”: 705 a.u.
Under “mean fluorescence intensity”, `2'F-ANA at 1 2 5 7 8 9 10 11 12 13 14` is recorded as 66.8 a.u.
For `2'F-ANA at 2 3 5 7 9 10 11 13 14 15`, “mean fluorescence intensity” read 246 a.u.
`2'F-ANA at 3 5 6 7 8 10 11 13 14 15` — result for “mean fluorescence intensity”: 70.4 a.u.
For `2'F-ANA at 1 3 5 9 10 12 14 15`, “mean fluorescence intensity” read 53.5 a.u.
`2'F-ANA at 3 5 8 9 12`: “mean fluorescence intensity” 342 a.u.
`2'F-ANA at 3 5 6 7 10 11 12 13 15`: “mean fluorescence intensity” 57.8 a.u.
`2'F-ANA at 2 6 10 11 13`: “mean fluorescence intensity” 101 a.u.
For `2'F-ANA at 4 7 8 10 11 12`, “mean fluorescence intensity” read 123 a.u.
`2'F-ANA at 1 4 5 6 9 10 11 12 13`: “mean fluorescence intensity” 49.2 a.u.
`2'F-ANA at 3 5 6 8 11 14` — result for “mean fluorescence intensity”: 55.5 a.u.
`2'F-ANA at 2 4 5 6 8 9 10 12` — result for “mean fluorescence intensity”: 57.6 a.u.
`2'F-ANA at 2 3 4 6 7 9 11 15` — result for “mean fluorescence intensity”: 350 a.u.
`2'F-ANA at 2 3 5 6 7 8 9 10 13 15`: “mean fluorescence intensity” 58.3 a.u.

Repeated from above (sample 2):
`TTAGGTTCCGGTTTCAGTTAGTGCTAG`: “fitted relative affinity” 5.89 z-score.
For `TCAAATTTCCACTTTGAACTGTGCTAG`, “fitted relative affinity” read 2.08 z-score.
For `GACGAACTGAGTTTCGATACGTGCTAG`, “fitted relative affinity” read 3.09 z-score.
`TTAGAACGGAGTATCGATTAGTGCTAG` — result for “fitted relative affinity”: 0.455 z-score.
Under “fitted relative affinity”, `TCAAGTCTGAGATCCAGACTGTGCTAG` is recorded as 0.00105 z-score.
